Measured values pooled from the literature.
Compare with care: the assays were run in different laboratories. Several values in a cell are separate wells, animals, samples, runs or records. ± gives the spread as reported.
ADRA2C: Alpha-2C adrenergic receptor (ADRA2C, Homo sapiens, UniProt P18825)
UCHL1: Ubiquitin carboxyl-terminal hydrolase isozyme L1 (UCHL1, Homo sapiens, UniProt P09936)
TOP2A: DNA topoisomerase 2-alpha (TOP2A, Homo sapiens, UniProt P11388)
Voltage-dependent P/Q-type calcium channel subunit alpha-1A: Voltage-dependent P/Q-type calcium channel subunit alpha-1A (Homo sapiens, UniProt O00555)
T1: ssRNA aptamer; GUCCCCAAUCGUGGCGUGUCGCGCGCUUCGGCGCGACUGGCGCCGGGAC
T2: G-quadruplex DNA (Homo sapiens); AGGGTGGGGAGGGTGGGGA
T3: G-quadruplex DNA (Homo sapiens); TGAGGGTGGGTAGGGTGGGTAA

Structure (SMILES) | target | test | test system | setting | scale | quantity | value
Cc1cc(Oc2ncccc2CN2CCN(c3ccccc3[N+](=O)[O-])CC2)ccc1-c1c(C)c(=O)[nH]c(=O)n1C | ADRA2C | binding, radioligand binding |  | together with: [3H]rauwolscine | relative to: Ki alpha2B over Ki alpha2C | selectivity ratio | 9
O=S(=O)(Nc1ccc(F)c2cnccc12)c1cc(Cl)cc(Cl)c1O | malate dehydrogenase | enzyme activity, inhibitor |  | 200 µM, pH 7.0, 1% DMSO, aggregation counter-screen |  | remaining activity | 88%
N#CC(=Cc1ccncc1)C(=O)Nc1cccc(Cl)c1 | UCHL1 | covalent, intact protein LC-MS |  | 12.5 µM |  | labelling | 36.5%
Cn1nnc2ccc(Cc3cccc(CO)c3)cc21 | Bromodomain-containing protein 4, BD1 (BRD4, Homo sapiens, UniProt O60885) | BROMOscan binding |  |  |  | ligand efficiency | 0.37
COc1cccc2c(Nc3ccc4[nH]c(C(=O)N/N=C/c5ccc(SC)cc5)cc4c3)cc(C)nc12 | Vitamin D3 receptor (VDR, Homo sapiens, UniProt P11473) | reporter gene, Gal4 hybrid reporter |  | 3 µM | relative to: vehicle | activation | 1.12 fold
O=c1nc(SCc2cc(F)cc(C(F)(F)F)c2)nc(SCc2ccc3nc(Cl)ccc3c2)[nH]1 | TOP2A | DNA cleavage |  | 15.6 µM, replicate 1 |  | linear DNA | 0%
CCCCC[C@H](O)/C=C/[C@H]1CCC(=O)[C@@H]1C/C=C\CCCC(=O)O | Prostaglandin E2 receptor EP1 subtype (PTGER1, Homo sapiens, UniProt P34995) | IP1 accumulation, agonist | AD293 |  | relative to: wild type | span | 99.9 ± 2.5%
Cc1cc(Oc2ncccc2CN2CCN(c3ncccc3C(F)(F)F)CC2)ccc1-c1c(C)c(=O)[nH]c(=O)n1C | ADRA2C | binding, radioligand binding |  | together with: [3H]rauwolscine | relative to: Ki alpha2B over Ki alpha2C | selectivity ratio | 4
N[C@@H](CCC(=O)O)C(=O)O | glc-2 (Caenorhabditis elegans, UniProt Q17328, R340A/R342A/S341A/T283S) | two-electrode voltage clamp | Xenopus laevis oocytes |  |  | median current | 0.6 µA
CC(C)(C)c1nc(-c2cccc(N(Cc3cc(C(=O)[O-])ccc3OP(=O)([O-])[O-])S(=O)(=O)c3c(F)cccc3F)c2F)c(-c2ccnc(N)n2)s1.[Na+].[Na+].[Na+] | Alkaline phosphatase, placental type (Homo sapiens, UniProt P05187) | substrate |  | 100 µM, pH 7.6, 37 °C |  | drug formation rate | 1.26 pmol/min
O=c1nc(SCc2cc(F)cc(C(F)(F)F)c2)nc(SCc2csc3ccc(Cl)cc23)[nH]1 | TOP2A | DNA cleavage |  | 125 µM, replicate 2 |  | linear DNA | 16.6%
CCCN(CCC)CCc1cccc2c1CC(=O)N2 | Voltage-dependent P/Q-type calcium channel subunit alpha-1A | ion current, antagonist | HEK293 | 30 µM |  | inhibition | 10%
CO[C@@H]1O[C@@H](C)[C@@H](O)[C@@H](O)[C@@H]1O | fleA (Aspergillus fumigatus, UniProt Q4WW81) | ITC |  |  |  | ΔH | -7.84 kcal/mol
O=C(O)C1CCCNC1 (stereo not drawn) | Sodium- and chloride-dependent taurine transporter (SLC6A6, Homo sapiens, UniProt P31641, Y138A) | binding, microscale thermophoresis |  | 125 µM, room temperature, together with: 50 nM labelled protein | higher = more binding | normalised MST signal | 0.969
CN(C)CCCN1c2ccccc2Sc2ccc(Cl)cc21 | Voltage-dependent P/Q-type calcium channel subunit alpha-1A | ion current, antagonist | HEK293 | 30 µM |  | inhibition | 96%
CN(CCO)c1cc2sc(/C=C(\C#N)c3ccc(C#N)cc3)cc2s1 | T1, ssRNA aptamer | fluorescence turn-on |  |  |  | binding | binds
O=C(COP(=O)(O)O)[C@@H](O)[C@H](O)[C@H](O)COP(=O)(O)O | Alcohol dehydrogenase class-3 (ADH5, Homo sapiens, UniProt P11766) | thermal proteome profiling | HepG2 cell lysate | concentration not given, 57 over 37 °C, mean | relative to: compound over control | thermal stability ratio | 0.577
Cc1cc(-c2ccnc3[nH]cc(F)c23)cc(F)c1[C@@]1(O)[C@H](C)CN(C(=O)CN)C[C@@H]1C | Serine/threonine-protein kinase LATS1 (LATS1, Homo sapiens, UniProt O95835) | ATP/ADP probe binding, KiNativ | HEK293T lysate | 10 µM, Lys1 peptide ALYATKTLR |  | probe labelling inhibition | 96.7%
CCCCn1/c(=C/C=C/C2=[N+](CCC[N+](C)(C)C)c3ccc(Br)cc3C2(C)C)c2cccc3cccc1c32 | T2, G-quadruplex DNA (Homo sapiens) | absorption titration |  | K+ 50 mM |  | binding | binds
c1cc(-c2nc(NCCCN3CCCCC3)c3ccccc3n2)nc(-c2nc(NCCCN3CCCCC3)c3ccccc3n2)c1 | T3, G-quadruplex DNA (Homo sapiens) | thiazole orange displacement, competitor, FID |  | 0.25 µM DNA, pH 7.4, 25 °C, KCl 100 mM, together with: thiazole orange 0.50 µM |  | IC50 | 246 nM
OC[C@H]1OC(O)[C@H](O)[C@@H](O)[C@@H]1O (stereo partly drawn) | Hexokinase-3 (HK3, Homo sapiens, UniProt P52790, E254A/R267A) | substrate inhibition |  | mutant E254A/R267A, partial substrate inhibition model, together with: ATP 20 mM |  | kcat | 60 ± 4 s⁻¹

Structure (SMILES) | target | test | test system | setting | scale | quantity | value
CSC1=C(C#N)C2(CCCCC2)C(C#N)=C(NC(=O)CCl)N1 | UCHL1 | covalent, intact protein LC-MS |  | 12.5 µM |  | labelling | 16.6%
Nc1nc(SCc2ccc(Cl)cc2)nn1S(=O)(=O)c1ccc(Br)cc1 | Lysophospholipase-like protein 1 (Mus musculus, UniProt Q3UFF7) | enzyme activity, activator, gel-based ABPP | purified protein | concentration not given, together with: FP-rhodamine | relative to: DMSO | probe labeling increase | 2.3 fold
COc1cc(/C=C/c2ccc(O)cc2)cc(OC)c1 | O-methyltransferase (Sorghum bicolor, UniProt A0A1B6PFV1) | ITC one-site model |  | together with: sinefungin |  | cooperativity factor | 0.41
C#CCCC1(CC[C@H](NC(=O)NCCCCCCNC(=O)NCCNC(=O)COc2cccc([C@@H](CCc3ccc(OC)c(OC)c3)OC(=O)[C@@H]3CCCCN3C(=O)C(=O)C(C)(C)CC)c2)C(N)=O)N=N1.O=C(O)C(F)(F)F | Peptidyl-prolyl cis-trans isomerase FKBP1A (FKBP1A, Homo sapiens, UniProt P62942) | photoaffinity labeling, in-gel fluorescence, measured: Alexa Fluor 647 click label |  | 0.016 µM, UV irradiation 365 nm | relative to: probe over FKBP12 signal, higher = more labeling | normalized labeling ratio | 0.094
CCCN1C[C@H](CSC)C[C@@H]2c3cccc4[nH]cc(c34)C[C@H]21 | Voltage-dependent P/Q-type calcium channel subunit alpha-1A | ion current, antagonist | HEK293 | 10 µM |  | inhibition | 15%
O=C1CN(c2ccc(NS(=O)(=O)c3cccc(Cl)c3O)cn2)CCN1 | malate dehydrogenase | enzyme activity, inhibitor |  | 200 µM, pH 7.0, 1% DMSO, aggregation counter-screen |  | remaining activity | 137%
O=C(O)c1cc(N2C(=O)C(O)=C(Cc3ccccc3)C2c2ccc([N+](=O)[O-])cc2)ccc1O (stereo not drawn) | ESR1/YWHAZ, with 14-3-3 zeta (Homo sapiens, UniProt P03372+P63104) | 14-3-3ζ/ERα peptide binding, stabiliser, fluorescence polarization |  |  |  | EC1.2 | 175 µM
CCCCCCCCC(=O)c1cc(O)c(O)c(O)c1 | Thyroid hormone receptor alpha (THRA, Homo sapiens, UniProt P10827) | reporter gene, Gal4 hybrid reporter |  | 10 µM | relative to: vehicle | activation | 1.16 fold
O=C(O)c1ccc([N+](=O)[O-])cc1 | BEST1 (Homo sapiens, UniProt O76090) | whole-cell patch clamp | HEK293 transiently expressing channel | concentration not given, membrane potential 0 mV |  | current density | -0.05 pA/pF and -0.15 pA/pF and -0.08 pA/pF and 0 pA/pF and -0.65 pA/pF and 0.03 pA/pF
Cc1cc(Oc2ncccc2CN2CCN(Cc3ccc(F)cc3)CC2)ccc1-c1c(C)c(=O)[nH]c(=O)n1C | ADRA2C | binding, radioligand binding |  | together with: [3H]rauwolscine | relative to: Ki alpha2A over Ki alpha2C | selectivity ratio | 11
N#CC(=Cc1cccc(Cl)c1)C(=O)NCc1ccccc1 | UCHL1 | covalent, intact protein LC-MS |  | 12.5 µM |  | labelling | 14.4%
O=S(=O)(Nc1ccc(-c2cnco2)cc1)c1cccc(Cl)c1O | malate dehydrogenase | enzyme activity, inhibitor |  | 200 µM, pH 7.0, 1% DMSO, aggregation counter-screen |  | remaining activity | 81%
CCN1CCC[C@H]1CNC(=O)c1c(O)c(Cl)cc(Cl)c1OC | G-protein coupled receptor 182 (GPR182, Homo sapiens, UniProt O15218) | β-arrestin recruitment, TANGO luminescence, measured: GPR182 |  | concentration not given | relative to: basal luminescence | log2 fold change | 0.288
N#Cc1c(Br)nc(-c2cccc([N+](=O)[O-])c2)c(C#N)c1N | UCHL1 | covalent, intact protein LC-MS |  | 12.5 µM |  | labelling | 11.9%
c1coc(-c2n[nH]cc2-c2ccnc3ccccc23)c1 | Serine/threonine-protein kinase HSL1 (HSL1, Candida albicans, UniProt Q5AG71) | kinase binding, MIB/MS competition | Candida albicans lysate | 1 µM | relative to: DMSO, negative = stronger binding | log2 fold change | -0.19
CN(C)CCOC1=Cc2ccccc2Sc2ccc(Cl)cc21 | Voltage-dependent P/Q-type calcium channel subunit alpha-1A | ion current, antagonist | HEK293 | 10 µM |  | inhibition | 89%
CC(=O)c1ccc(Oc2c(F)c(F)nc(N3CCCCC3)c2F)cc1 | UCHL1 | covalent, intact protein LC-MS |  | 12.5 µM |  | labelling | 2.1%
C[C@@H]1C[C@@]1(C(=O)O)C(=O)NCc1ccc(Cl)c(Cl)c1 | malate dehydrogenase | enzyme activity, inhibitor |  | 200 µM, pH 7.0, 1% DMSO, aggregation counter-screen |  | remaining activity | 91%
COc1ccc(C2=NN(C(=O)CCl)C(c3ccc(F)cc3)C2)cc1 (stereo not drawn) | UCHL1 | covalent, intact protein LC-MS |  | 12.5 µM |  | labelling | 11.3%
C=CC(=O)N1CCC(COCC(=O)N2CCN(c3nc(-c4cnc(N)nc4C(F)F)nc(N4CCOC[C@@H]4C)n3)CC2)CC1 | Leucine-rich repeat serine/threonine-protein kinase 2 (LRRK2, Homo sapiens, UniProt Q5S007, G2019S) | KINOMEscan |  | 1 µM |  | remaining binding | 92%
CC[C@H](C)[C@@H]1NC(=O)[C@H](C)NC(=O)[C@H]([C@@H](C)CC)NC(=O)[C@H](CCC(N)=O)NC(=O)[C@H](C)NC(=O)[C@H](CCCNC(=N)N)NC(=O)[C@H](C(C)C)NC(=O)[C@H](CC(C)C)NC(=O)[C@H](CCC(=O)O)NC(=O)[C@H](CCCNC(=N)N)NC(=O)CNC(=O)[C@@H](NC(=O)[C@H](CC(C)C)NC(=O)[C@H](CCCCN)NC(=O)[C@@H](NC(=O)[C@@H](NC(=O)[C@H](CCC(=O)O)NC(=O)[C@H](CCC(=O)O)NC(=O)[C@H](CCSC)NC(=O)[C@H](Cc2c[nH]c3ccccc23)NC(=O)[C@H](CO)NC(=O)[C@@H](N)CC(=O)O)C(C)C)[C@@H](C)CC)CSSC[C@@H]2NC(=O)[C@@H](NC(=O)[C@H](CCCCN)NC(=O)[C@H](CC(N)=O)NC(=O)[C@H](C)NC(=O)[C@H](CC(C)C)NC(=O)[C@H](C)NC(=O)[C@H](CO)NC(=O)[C@H](Cc3ccc(O)cc3)NC(=O)[C@H](CC(C)C)NC(=O)[C@H](CCC(N)=O)NC(=O)c3ccc(-c4c5ccc(=[N+](C)C)cc-5oc5cc(N(C)C)ccc45)c(C(=O)[O-])c3)CSSC[C@H](NC(=O)CNC(=O)[C@H](C(C)C)NC(=O)[C@H](Cc3c[nH]cn3)NC2=O)C(=O)N[C@@H]([C@@H](C)O)C(=O)N[C@@H](CCCCN)C(=O)N[C@@H](CCCNC(=N)N)C(=O)N[C@@H](CO)C(=O)N[C@@H](CC(C)C)C(=O)N[C@@H](C)C(=O)N[C@@H](CCCNC(=N)N)C(=O)N[C@@H](Cc2ccccc2)C(=O)N[C@H](C(=O)O)CSSC[C@@H](C(=O)NCC(=O)N[C@@H](CCSC)C(=O)N[C@@H](CO)C(=O)N[C@H](C(=O)N[C@@H](Cc2c[nH]c3ccccc23)C(=O)N[C@@H](CO)C(=O)O)[C@@H](C)O)NC1=O | Relaxin receptor 1 (RXFP1, Homo sapiens, UniProt Q9HBX9, F76A/Y80A) | binding, NanoBRET |  | together with: relaxin 1 µM |  | dissociation plateau | 8.8%
